Published values pooled from the literature.
Each numbered part is a random draw from the data of one study; scales do not carry over between parts.

Study 1 — technique: Spec-seq; form: double-stranded DNA, one strand shown; medium: in vitro; tested at: not given; notes: whole probe, mean of replicates; relative to: not given; reading: lower = stronger binding; measurement: relative binding energy; all sequences stand within: GAGTCGTCTCGTCAGCAC … CCGTAGAGCACTCAGGTC
Target: POU domain, class 5, transcription factor 1, POU domain (Pou5f1, Mus musculus, UniProt P20263, residues 131-289)
UniProt P20263, sequence (131-289, looked up): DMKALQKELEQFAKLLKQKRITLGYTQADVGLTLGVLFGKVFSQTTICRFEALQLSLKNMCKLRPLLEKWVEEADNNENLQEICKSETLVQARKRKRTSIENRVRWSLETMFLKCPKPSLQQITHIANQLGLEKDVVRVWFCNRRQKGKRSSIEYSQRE
ATGCGAAG: 0.32 ln ratio
ATGCGCCG: 0.611 ln ratio
ATGCATTA: -0.946 ln ratio
ATGCTATT: -0.0278 ln ratio
ATGCTAGC: 0.576 ln ratio
ATGCAGTT: 0.174 ln ratio
ATACTTAT: -0.248 ln ratio
CGCTTAAT: 0.635 ln ratio
CGTCTAAT: 1.1 ln ratio
CTCGTAAT: 1.02 ln ratio
ATAACGAT: 0.336 ln ratio
ATAGGCAT: 0.341 ln ratio
ATGCGCAA: 0.187 ln ratio
ATGCACTC: 0.19 ln ratio
ATGCGGGA: 0.409 ln ratio
ATGCGCTA: 0.555 ln ratio
ATTCCCAT: 0.108 ln ratio
ATATACAT: -1.18 ln ratio
ATGTAAAT: -1.87 ln ratio
TATATAAT: 0.245 ln ratio
ATTAACAT: -2.81 ln ratio
ATGCTCAA: 0.332 ln ratio
ATCATTAT: -0.0671 ln ratio

Study 2 — technique: protein binding microarray; form: double-stranded DNA, one strand shown; medium: in vitro; tested at: not given; relative to: not given; reading: higher = stronger binding; measurement: E-score
Target: Histone acetyltransferase KAT6A, both winged helices, GST fusion (KAT6A, Homo sapiens, UniProt Q92794, residues 1-181)
Notes: 8-mer, flanks averaged, mean of 2 arrays, mostly near background
Target sequence (chain): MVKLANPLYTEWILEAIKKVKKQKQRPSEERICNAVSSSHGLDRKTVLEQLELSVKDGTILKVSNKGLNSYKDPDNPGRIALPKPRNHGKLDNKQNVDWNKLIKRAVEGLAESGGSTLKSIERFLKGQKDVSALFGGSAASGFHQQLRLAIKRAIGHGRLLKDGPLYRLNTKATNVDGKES
AAGCGACA: 0.0597
CACGACTA: -0.149
CACGGTAC: 0.174
CAAACGGA: 0.177
GCAGCAGC: -0.0311
CGAGAGCC: 0.0301
AGCATTAG: -0.0411
CGATCGTA: 0.0564
ATGACTAC: -0.0268
AGATGGGA: -0.206
CCTTATGA: -0.0772
CAACCCGA: 0.0694
CCTGTATC: 0.0295
AAGGCACT: -0.196
GGCGCGTA: 0.31
CGGAAGAC: 0.181
ACGTTCCG: 0.134
AGCGAAAT: -0.129
AAGGTTGG: -0.0554
TGTATGAA: 0.0666
GCCAAGGA: -0.131
CCGGGTCG: 0.217
ATCGTCGC: 0.0933
CCCCGCGG: 0.379
TCGTTCCA: -0.137

Study 3 — technique: RNA Bind-n-Seq; form: RNA; medium: in vitro; tested at: 365 nM; relative to: no-protein control; reading: higher = stronger binding; measurement: RBNS enrichment (R)
Target: RNA binding protein fox-1 homolog 2, RRM domain, GST-SBP tag (RBFOX2, Homo sapiens, UniProt O43251-10, residues 100-194)
Notes: natural RNA segment, single round, ends assumed
All sequences stand within: GGGAGUUCUACAGUCCGACGAUC … UGGAAUUCUCGGGUGCCAA
Residues (chain): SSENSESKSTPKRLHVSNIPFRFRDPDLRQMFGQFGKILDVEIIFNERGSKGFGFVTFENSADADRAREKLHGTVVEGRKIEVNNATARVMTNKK
UUAGUAGAUGGGGUUUCAUCAUGUUGGCCAGGCUGGUUUUGAACUCCUGACUUCAAAUGAUCCACCCACAUCCACCUGCCAGAGUGCUGAGAUUACAGGCGUGAGCCACC: 0.604
UUACAUUGUUAGGGAGCUGGUGAUUUUUUGCCAUGGUCGUAUCGUGGACAGCUUUUCCGUGGAAAUUCAAGGCAUCUGUAUUAGGCAAAUGUGAGUGCCCUUGAUCUUGU: 0.819
AUCAGUUCUGCACACCUCCAGGGGUGGAUCCAGCUGUAAGGCCAUACCUAUAUCUUCCAGAUGUCCUCAUCUGCUGCAGGGCUUUGGCCCUGCUCAGGAUAAUGUGCUAU: 0.228
AUGAAGAACACAGGGAUAAAGCAAAGGCCAUCAUGCCGCAGACUGGAGCCACCUGGAAGCCACUCCAAUUUGGUGGCACAGGACAGGUUUCCAAGAUGUCACGAGAAAAG: 0.485
GCCCCUGCCUCUUCCCUAGUGUCAGCCUACUCCAGGCUCCCAGCUGCCUUGAGAGGCCGCGGACAAAGAGCUUCUAAAACCAAGAGUCUCAGCGCUUGAGGAGUGCUGCC: 0.641
AAGCAAGAGGGGGCCGUUUUAAUGAAUUAGAUUGAAAAAUAGGCCUAAGCCGUUUGUACCUUAGUUUUAGCGUUCGGCCUCACCUAGCAAUCAAGGGCCCGUUUGGAGAA: 0.599
UGGACAUCUUGGCAACACAAUCUUACAAAGGCAGAUUCAGCUGCCCCCAUACCACUGUGUUCCUUCUGUAACGCCACGUUCUCCCUCCAGCAUGCCGAGCACAAUGUCCA: 2.27
UUUCUGGAAUUUUCCGUUUGGGAAUCUCCACUUCUGGGGUUUACCUGUUCGGCCUCCUGUCUAUCAGUGAGGCAUCUCUGACUGUUUCUUCUACUGCUUUUCAGUUCCCU: 0.232
UAUCUCCCUUUCCUUCACUCAAGGGCCAUUUCCCCAGUCCCUAUCUCCCCCAUCCCCUCCCGGCUUAUAGGCCCCACAGGUGCUAUUUGUUGUGCUGGCCCAGGCGUGGG: 1.02

Study 4 — technique: RNA Bind-n-Seq; form: RNA; medium: in vitro; tested at: not given; relative to: input RNA pool; reading: higher = stronger binding; measurement: bound/input enrichment
Target: RING finger protein unkempt homolog, zinc fingers 1-6, GST-SBP tag (UNK, Homo sapiens, UniProt Q9C0B0, residues 30-357)
Notes: RNA with constant flanks, human and mouse sites, ends assumed
All sequences stand within: GGGAGUUCUACAGUCCGACGAUC … CAACAGAGGAUUGAGCAUCA
Construct (chain): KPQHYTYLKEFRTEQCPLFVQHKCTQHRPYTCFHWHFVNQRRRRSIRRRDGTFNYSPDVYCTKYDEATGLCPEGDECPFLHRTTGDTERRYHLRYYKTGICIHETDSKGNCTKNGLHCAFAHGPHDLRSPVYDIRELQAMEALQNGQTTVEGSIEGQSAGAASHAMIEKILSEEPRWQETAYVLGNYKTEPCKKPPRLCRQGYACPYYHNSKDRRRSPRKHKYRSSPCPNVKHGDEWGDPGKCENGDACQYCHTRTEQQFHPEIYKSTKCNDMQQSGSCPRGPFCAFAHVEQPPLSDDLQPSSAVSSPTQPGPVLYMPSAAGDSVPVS
UUUCUAAUACAGCAGUAUCUUAAAGAAGACUACAGUUUUACAGCUUAUGCUACCAUUUCGUAUUUGAAAAUAGGACCUAAAGCUAAUCUUCUGAACAAUGAGGCACAUGCUAUUACUAUG: 0.167 ratio
GCUAUGCAGGCUUUGACUCUUCUAGGAGCAUGUGUAUCAAACUGUGGCAAAAUUUUUCAUUUAGAAGUAUGUUCAAGAGAUUUUGCUAGUGAAGUAAGCAACGUAUUAAAUAAGGGUCAU: 2.27 ratio
GCGGAAUAAUAAGCCGGGAUCUACCAUACCCAUUGACUAACUAUGGAAGAUUAUACCAAAAUAGAGAAAAUUGGAGAAGGUACCUAUGGAGUUGUGUAUAAGGGUAGACACAAAACUACA: 0.365 ratio
UCAUUGUCCUUUCUCCAGUUUUUGUUCCAGAAUAAAAGGAAAUAUUUUAAAAGCCACGUUAUAGGACCUAAAAAUCUGAUUUCCGUACCAGUUAAAUUGGUAGCAUCACUGUUACUGAUA: 0.24 ratio
AUAUACUUUUAUCAUUUAAAUGUCUUAUUUGCUGCUAUGAAUAGGAAAUAACAUUUUGUAUAGCAGGCUCUGUUUUACCCUAACAUUAAAAAAUUUCACUGAUCUUUCUUUCAUUAACAG: 2.42 ratio
AGUAUUAAAAAAAUCAUACAUGUGCUGGAGAAGGUCCAGUAUCUUGAACAAGAAGUAGAAGAAUUUGUAGGAAAAAAGACAGACAAAGCAUACUGGCUUCUGGAAGAAAUGCUAACCAAG: 1.71 ratio
AAGAUCUCCAUGGACGUGUUCGUGAGGAGGUUCCAGCCGGAACGCUACAAACUUUGGAAAGCUGGGAAGGACAGCAUGGUUAUUGACCACACUCUGCCCACACCGGAAGCAGCCGAGUUC: 0.0864 ratio
UAUGAACUGUUAAAACGGAAUGCAAGGUUUUCAAAAGCCCAGGUCUAACUGUGAUGAUUGGUUUAUUGGUCUACAAUCCCAGCCUGGCAUUUUCCGUGUAAAUCAUAAACAAUAAACAGG: 0.268 ratio
AUCAACCAAGCUGCUCUUCUCAGCAUCCCUGGCUUUGUGGAACGGCUUUGCAAACUGGCAACUAGGAAAGUGUCAGAGUCAACGGGCACAGCCAGCUUCCUUCAAGAACUGGAGGAGUGG: 0.204 ratio
AGGCAUUUACUGUACAUUUCUCCCGAGAAAAGAGUGAGAUCGUGUCAUCUCAUGCUCCCCAUCCGCAGGUCACUUCCUGUAGAAAUAUGGACUAACUUACACCUCGUUUUACUGCAAUCA: 0.28 ratio
AGGCUAAUCACCAAUUUCUUAUUUUUUGGUCCAGUUGGAUUCAAUUUUUUGUUUAACAUGAUUUUUCUAUACCGUUAUUGUCGAAUGCUAGAAGAAGGCUCUUUCCGAGGUCGGACAGCA: 1.33 ratio

Repeated from above (study 2):
GGCGCGTA: 0.31
AAGCGACA: 0.0597
AGATGGGA: -0.206
ATGACTAC: -0.0268
CCGGGTCG: 0.217
AAGGTTGG: -0.0554
ACGTTCCG: 0.134
